{"data": "Results from different studies", "note": "Numbered parts are unrelated; each lists some results of a single study."}
{"data": "Block 1", "target": "Histone acetyltransferase KAT6A, both winged helices, GST fusion (KAT6A, Homo sapiens, UniProt Q92794, residues 1-181)", "method": "protein binding microarray", "molecule type": "double-stranded DNA, one strand shown", "matrix": "in vitro", "tested at": "not given", "notes": "8-mer, flanks averaged, mean of 2 arrays, mostly near background", "reference": "not given", "direction": "higher = stronger binding", "Target sequence (chain)": "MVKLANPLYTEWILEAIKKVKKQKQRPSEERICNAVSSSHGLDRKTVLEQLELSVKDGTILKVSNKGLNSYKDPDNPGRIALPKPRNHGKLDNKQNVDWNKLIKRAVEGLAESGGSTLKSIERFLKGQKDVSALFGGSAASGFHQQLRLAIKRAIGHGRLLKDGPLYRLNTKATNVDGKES"}
{"Strand": "AGCAAAGG", "E-score": -0.185}
{"Strand": "AAACATAC", "E-score": 0.086}
{"Strand": "CCCAGCGC", "E-score": 0.164}
{"Strand": "ACGAGCAA", "E-score": -0.057}
{"Strand": "TGTGAGAA", "E-score": -0.143}
{"data": "Block 2", "target": "Interferon regulatory factor 7, full length, phosphomimetic (IRF7, Homo sapiens, UniProt Q92985, residues 1-503, S101K/S471D/S472D/S475D/S476D/S477D/S483D/S484D/S487D)", "method": "protein-binding microarray", "molecule type": "double-stranded DNA, one strand shown", "matrix": "in vitro", "tested at": "250 nM", "notes": "60-bp whole probe", "together with": "salmon DNA 0.4 mg/ml", "reference": "random background probes", "direction": "higher = stronger binding", "UniProt Q92985, sequence (whole entry, unmodified, looked up)": "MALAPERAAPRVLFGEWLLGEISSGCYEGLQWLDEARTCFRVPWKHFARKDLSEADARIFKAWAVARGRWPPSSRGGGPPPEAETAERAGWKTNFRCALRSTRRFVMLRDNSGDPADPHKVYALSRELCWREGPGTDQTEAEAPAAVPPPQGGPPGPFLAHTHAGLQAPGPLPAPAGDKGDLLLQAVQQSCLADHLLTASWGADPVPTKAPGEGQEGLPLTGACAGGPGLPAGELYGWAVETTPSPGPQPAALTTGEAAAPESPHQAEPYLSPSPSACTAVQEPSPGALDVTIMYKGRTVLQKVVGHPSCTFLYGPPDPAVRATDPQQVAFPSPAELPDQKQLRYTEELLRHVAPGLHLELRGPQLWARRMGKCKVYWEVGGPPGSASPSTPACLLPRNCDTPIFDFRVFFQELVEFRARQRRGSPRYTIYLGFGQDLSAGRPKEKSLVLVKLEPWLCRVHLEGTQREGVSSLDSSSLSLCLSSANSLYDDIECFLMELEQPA"}
{"Strand": "GCCTAGCACTCACCATCCTGTATGGAACTGTGCTAGGTCTTGATTCGCTTGACGCTGCTG", "log fluorescence [z-score]": -0.0884}
{"Strand": "GCCTAGCACTTAGGTATCGACTATCGGGTAGTGCTAGTCTTGATTCGCTTGACGCTGCTG", "log fluorescence [z-score]": 0.0917}
{"Strand": "GCCTAGCACGACGGTTTCCTTTTTCTGACGTGCTAGGTCTTGATTCGCTTGACGCTGCTG", "log fluorescence [z-score]": 5.39}
{"Strand": "GCCTAGCACTCAGTTTTCAGTTTCACACTGTGCTAGGTCTTGATTCGCTTGACGCTGCTG", "log fluorescence [z-score]": 4.14}
{"data": "Other studies, line by line", "SALL4 full length isoform A": "Sal-like protein 4, full length isoform A (SALL4, Homo sapiens, UniProt Q9UJQ4, residues 1-1053)", "UniProt Q9UJQ4, sequence (whole entry, looked up)": "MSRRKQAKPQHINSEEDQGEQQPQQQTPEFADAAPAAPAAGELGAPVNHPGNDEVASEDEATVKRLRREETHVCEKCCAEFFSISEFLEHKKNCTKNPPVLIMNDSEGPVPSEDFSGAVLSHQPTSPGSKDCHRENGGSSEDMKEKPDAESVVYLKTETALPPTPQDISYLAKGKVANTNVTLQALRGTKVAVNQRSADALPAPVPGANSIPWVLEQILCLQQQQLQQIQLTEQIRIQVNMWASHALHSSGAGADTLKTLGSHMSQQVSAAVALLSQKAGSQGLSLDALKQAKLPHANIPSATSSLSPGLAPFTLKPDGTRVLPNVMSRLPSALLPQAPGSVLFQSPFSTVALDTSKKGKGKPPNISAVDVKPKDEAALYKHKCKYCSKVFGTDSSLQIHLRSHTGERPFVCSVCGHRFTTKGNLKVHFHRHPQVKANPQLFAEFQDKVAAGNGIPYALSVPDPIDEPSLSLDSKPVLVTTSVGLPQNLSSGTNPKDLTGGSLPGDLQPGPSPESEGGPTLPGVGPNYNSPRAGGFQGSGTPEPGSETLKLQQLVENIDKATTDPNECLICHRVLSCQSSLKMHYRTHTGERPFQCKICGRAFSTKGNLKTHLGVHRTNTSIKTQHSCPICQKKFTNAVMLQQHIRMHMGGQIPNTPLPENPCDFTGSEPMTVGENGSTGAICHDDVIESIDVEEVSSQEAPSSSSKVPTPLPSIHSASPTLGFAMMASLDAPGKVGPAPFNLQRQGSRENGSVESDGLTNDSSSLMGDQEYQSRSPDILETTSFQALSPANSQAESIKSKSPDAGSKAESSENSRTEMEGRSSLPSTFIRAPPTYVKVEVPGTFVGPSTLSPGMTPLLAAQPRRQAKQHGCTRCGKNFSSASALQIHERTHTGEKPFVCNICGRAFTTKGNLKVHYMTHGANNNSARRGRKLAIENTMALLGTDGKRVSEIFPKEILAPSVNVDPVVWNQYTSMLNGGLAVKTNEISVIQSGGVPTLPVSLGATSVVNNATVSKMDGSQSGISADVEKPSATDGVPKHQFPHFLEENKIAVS"}
{"Molecule": "GGGCTATA", "target": "SALL4 full length isoform A", "test": "universal PBM", "system": "double-stranded DNA, one strand shown, in vitro", "setting": "600 nM, 8-mer, flanks averaged, mean of replicates", "scale": "higher = stronger binding", "measurement": "E-score", "value": 0.0084}
{"Molecule": "PhoQ, residues 284 288 289 292 302 303 HSYLQF", "target": "PhoP, residues 12 14 15 18 19 SYFRT (Escherichia coli, UniProt P23836)", "test": "Sort-seq, measured: YFP reporter", "system": "E. coli", "setting": "PhoQ-PhoP variant library, together with: 10 µM Mg2+", "scale": "reference: high Mg2+ state, higher = stronger signaling", "measurement": "fold induction", "value": 11}
{"Molecule": "TCCCTCAA", "target": "SALL4 full length isoform A", "test": "universal PBM", "system": "double-stranded DNA, one strand shown, in vitro", "setting": "600 nM, 8-mer, flanks averaged, mean of replicates", "scale": "higher = stronger binding", "measurement": "E-score", "value": -0.0796}
{"note": "A few entries again (block 2):"}
{"Strand": "GCCTAGCACGACGGTTTCCTTTTTCTGACGTGCTAGGTCTTGATTCGCTTGACGCTGCTG", "log fluorescence [z-score]": 5.39}
